Assay results from different studies.
Parts stem from different laboratories: compare values within a part only.

Sample 1
Target: RING finger protein unkempt homolog, zinc fingers 1-6, GST-SBP tag (UNK, Homo sapiens, UniProt Q9C0B0, residues 30-357)
Technique: RNA Bind-n-Seq
Molecule type: RNA
Sample: in vitro
Tested at: not given
Notes: RNA with constant flanks, human-mouse chimeric sites, ends assumed
Reference: input RNA pool
Direction: higher = stronger binding
All sequences stand within: GGGAGUUCUACAGUCCGACGAUC … CAACAGAGGAUUGAGCAUCA
Construct (chain): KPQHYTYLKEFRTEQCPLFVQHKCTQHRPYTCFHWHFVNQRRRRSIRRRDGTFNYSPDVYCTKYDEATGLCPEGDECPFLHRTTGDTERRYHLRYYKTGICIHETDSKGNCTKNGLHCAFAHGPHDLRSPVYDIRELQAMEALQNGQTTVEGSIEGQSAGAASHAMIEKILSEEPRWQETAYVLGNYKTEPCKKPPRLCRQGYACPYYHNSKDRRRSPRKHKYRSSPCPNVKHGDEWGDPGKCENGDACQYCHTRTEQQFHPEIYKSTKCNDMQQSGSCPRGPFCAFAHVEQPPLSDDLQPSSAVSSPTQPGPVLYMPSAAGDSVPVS
Strand	bound/input enrichment [ratio]
GUUGCCAGCUUCCGGUUCCGUUGGGCUAGCAAGCUCCCUGAGCUACGUGUCUCUACGUUUUAGGUGUGCCAUCCAACAAACAUGGAUCAGGUAAUGCAGUUUGUGGAGCCCAGCCGGCAG	0.113
GAGCCCAGCCGGCAGUUUGUAAAGGACUCAAUUCGGCUGGUUAAAAGAUGCACCAAACCUGAUAGAAAAGAAUUCCAGAAGAUUGCCAUGGCUACAGCUAUAGGAUUUGCUAUCAUGGGA	0.287
GGCUGCUGGUGACUGUCCUGGAGUGGCUGGAGUUCCCGCCGGAGCGCGGCCAGACUAAUUUUAGAAAAUGCCAAGUAGGAAAUUUGCCGAUGGUGAAGUGGUCAGAGGCCGAUGGCCUGG	7.59
UCAGGAACCCAGACAAACAUGAAUGUAAAUGAAGUCAUUAGCAACAGAGCAAUUGAAAUGUUAGGAGGUGAACUUGGCAGCAAGAUACCUGUGCACCCCAAUGAUCAUGUUAAUAAAAGC	0.313
UAAGUUAUUUUGUACAGCUUUGUAAAUUCUUAACAUUAAUUUGUAAAACAUUUUAUGUUGUUUGGGUAAUUUGGUUCAUUAAGUACAUAGCUAAGGUAAUGAACAUCUUUUUCAGUAAUU	0.329
GAGCGUCUUGCCCGCACUGGGAUCAUCGUGACCACUAGUGAGGCUGUCCUCCUACAGCUGGUGGCUGACAAAGACCACCCGAAGUUCAAGGAAAUUCAGAAUCUAAUUAAGGCGAGUGCC	0.113
AACUUCGUGCAUCGGUUUCCCUUUGUAGCUGUUUCAAUUGGCUUCCUUGUAAAUAAAGAGAUGGAGUUUGGAAUUGUGUACAGCUGUGUGGAAGAUAAGAUGUACACUGCCAGAAAAGGG	0.28
GCAAGAGAUGAUGAGGCGGCAGCUGUUGCACUUUCCUCUCUCGUUCAUGCUUUGGAUGAGUUAAACAUGGUCGCCAUCGUCCGAUAUGCUUAUGACAAAAGAUCUAAUCCUCAAGUUGGU	0.0925
GGCCUGGGACCGUCCUGGGCUAGUACAAAUAGCGGCAGUGGAGGCUCGAGAGGAAAGUUGUUAGUGGGAGGCAGUGGUAGAGGCCGUCAUGUACGGUCUUUACACGAAUAGAUGUGUUCU	0.618
AAAGCCCAAGUAUUUUGAAAAAACUCGAACAGAUUUGACAAGGGUAGCCAGCUUGGAGUCUAGCAAUUUGCCAAUGUGUUUACCAAUCUGGGGGCUUGUUUUUCUUUCCCUUCCUUAAAU	0.477
CUGGCCUGGCCCUCCCCAGGGGCCUCCUUCUCUGCAUUAACUGUCAGUGCAUCAGAUACUUUCAGCUGCAACUCCCUACUGGGUGGGGCACCCAUUUCAGGCAGAAGGUUUUGGUACCCU	0.28

Sample 2
Target: Fragile X messenger ribonucleoprotein 1, C-terminal low-complexity region (Fmr1, Mus musculus, UniProt P35922)
Technique: RNA Bind-n-Seq
Molecule type: RNA
Sample: in vitro
Tested at: 200 nM
Notes: whole 134-nt RNA, ends assumed
Added: 150 mM LiCl
Reference: input library
Direction: higher = stronger binding
All molecules: 7-deaza-guanosine replaces G
All sequences stand within: GGGAGUUCUACAGUCCGACGAUC … UGGAAUUCUCGGGUGUCAAGG
Strand	log2 enrichment
UGGGAGGUGGAUUUUGUUUAUUUUUUUAGCUCAUUUCCAGGGGUGGGAAUUUUAUUUUAAUAUGUGUCAUGAAUAAAGUUGUUUUUGAAA	0.00263
UCCUGUGCUACACAUCGUAUGUACCGAAUCGGGAAAAAGGGUUUUUUUGGGAAAAAGGGAAAGUAUUAUGUUACGCCGUUCGGAUCUGCA	-1.86
AAGUCCUGUGCUACACAUCGUAUGUACCGAAUCGGGGUGGGGUGGGGUUUUUGGGGAAAGUAUUAUGUUACGCCGUUCGGAUCUGCACUU	-1.47
GCAGGAAGUAAAAACAAAUGGAAAUGUUUCGGAUAGUGGCAGGGGUGGGGGUUGCUAAGGAAAGGGUGGGAUGGGAGUGGGUAAAGAGUU	1.6
ACCAUGCAGGUGGGCAUCUUUGGGAAGUGGGGCAAGGGGGGGAUAGGGAGGGGGGUAACACUUUGGGAACAGGUGGUCCCAGUUCGUUUC	1.27
CACAGACAACACAAACCCACACAGACACAGAGGGAAGGGGUUGGGAUGGGGACAGGGUGCACAGCAGGGCGGGGUAGGACCCCAGCCCCU	-0.0357
UCCUGUGCUACACAUCGUAUGUACCGAAUCGGGGUUUUUUUGGGGAGGGGUUUUUGGGGAAAGUAUUAUGUUACGCCGUUCGGAUCUGCA	0.00656
UCCUGUGCUACACAUCGUAUGUACCGAAUCGGAAAAAAGGGGAAAAAAGGAAAAAAGGGAAAGUAUUAUGUUACGCCGUUCGGAUCUGCA	-0.276
CUGUGCUACACAUCGUAUGUACCGAAUCGGGGCCCCCCCGGGGCCCCCCCGGCCCCCCCGGGAAAGUAUUAUGUUACGCCGUUCGGAUCU	-0.824
ACCAUGCAGGUGGGCAUCUUUGGGAAGUGGGGCAAGGGGGGGAUAGGGAGGGGGGUAACACUUUGGGAACAGGUGGUCCCAGGUCGCUUC	1.48
GUCCUGUGCUACACAUCGUAUGUACCGAAUCGGGAAAAAAGGAAAAAAGGGAAAAAAGGAAAGUAUUAUGUUACGCCGUUCGGAUCUGCA	-0.0833

Sample 3
Target: Sal-like protein 4, full length isoform A (SALL4, Homo sapiens, UniProt Q9UJQ4, residues 1-1053)
Sequence of UniProt Q9UJQ4 (whole entry, looked up): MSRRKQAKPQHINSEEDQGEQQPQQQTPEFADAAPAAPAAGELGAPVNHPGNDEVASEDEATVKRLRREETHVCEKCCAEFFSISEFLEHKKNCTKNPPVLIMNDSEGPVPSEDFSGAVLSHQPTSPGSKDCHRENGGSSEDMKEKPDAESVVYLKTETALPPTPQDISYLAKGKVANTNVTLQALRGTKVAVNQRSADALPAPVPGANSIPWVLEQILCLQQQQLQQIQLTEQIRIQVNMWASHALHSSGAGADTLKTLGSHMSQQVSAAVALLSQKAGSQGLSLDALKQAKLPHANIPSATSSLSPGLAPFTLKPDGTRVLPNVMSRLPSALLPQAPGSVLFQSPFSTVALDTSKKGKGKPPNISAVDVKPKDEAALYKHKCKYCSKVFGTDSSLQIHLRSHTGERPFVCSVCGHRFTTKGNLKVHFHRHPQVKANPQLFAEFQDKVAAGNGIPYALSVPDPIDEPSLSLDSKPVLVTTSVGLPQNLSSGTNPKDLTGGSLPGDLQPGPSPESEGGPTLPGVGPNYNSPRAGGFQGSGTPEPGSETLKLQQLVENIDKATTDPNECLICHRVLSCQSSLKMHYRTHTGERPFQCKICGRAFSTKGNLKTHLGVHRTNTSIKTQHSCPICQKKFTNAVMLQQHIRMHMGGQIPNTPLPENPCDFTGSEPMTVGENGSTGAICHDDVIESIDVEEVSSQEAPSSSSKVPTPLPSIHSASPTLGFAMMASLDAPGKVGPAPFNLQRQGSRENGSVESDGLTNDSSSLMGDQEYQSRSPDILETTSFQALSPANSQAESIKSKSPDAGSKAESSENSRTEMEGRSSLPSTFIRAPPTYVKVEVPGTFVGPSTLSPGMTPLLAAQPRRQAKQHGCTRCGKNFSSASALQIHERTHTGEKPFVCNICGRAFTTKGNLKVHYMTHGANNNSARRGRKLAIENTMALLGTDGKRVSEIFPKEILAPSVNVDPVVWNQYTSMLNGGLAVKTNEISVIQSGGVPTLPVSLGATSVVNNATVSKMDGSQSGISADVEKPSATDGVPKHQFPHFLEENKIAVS
Technique: universal PBM
Molecule type: double-stranded DNA, one strand shown
Sample: in vitro
Tested at: 600 nM
Notes: 8-mer, flanks averaged, mean of replicates
Direction: higher = stronger binding
Strand	E-score
AACACGTT	0.0886
GTCAAAAC	0.0109
CAAAAGAA	0.219
CATGTCAC	0.0713
CCCCACGC	-0.276
ACCTAACA	0.0769
AGTTCGTC	0.012
CTTGATCA	0.0813
AGTTGTCC	0.0549
AGCCATTC	-0.0711
CCTGCACA	-0.152
CCAACTCA	-0.0461
GCAGCTTA	-0.0826
GCTAAAAA	0.131
CAAGTCGC	-0.283
GTTGTAGA	0.175
CTAGAAGC	-0.136
GATTGGAC	-0.00242
GAGTTATC	0.148
GTCTTGAA	0.0836
ACACTCGA	-0.0938
AAGCGAGG	-0.0922
CTAATAAC	0.344

Sample 4
Target: Interferon regulatory factor 3, full length, phosphomimetic (IRF3, Homo sapiens, UniProt Q14653, residues 1-427, S386D/S396D/S398D/S402D/T404D/S405D)
Technique: protein-binding microarray
Molecule type: double-stranded DNA, one strand shown
Sample: in vitro
Tested at: 2540 nM top
Notes: 60-bp whole probe
Added: salmon DNA 0.4 mg/ml
Reference: random background probes
Direction: higher = stronger binding
All sequences stand within: GCCTAGCAC … GTCTTGATTCGCTTGACGCTGCTG
Target sequence (chain): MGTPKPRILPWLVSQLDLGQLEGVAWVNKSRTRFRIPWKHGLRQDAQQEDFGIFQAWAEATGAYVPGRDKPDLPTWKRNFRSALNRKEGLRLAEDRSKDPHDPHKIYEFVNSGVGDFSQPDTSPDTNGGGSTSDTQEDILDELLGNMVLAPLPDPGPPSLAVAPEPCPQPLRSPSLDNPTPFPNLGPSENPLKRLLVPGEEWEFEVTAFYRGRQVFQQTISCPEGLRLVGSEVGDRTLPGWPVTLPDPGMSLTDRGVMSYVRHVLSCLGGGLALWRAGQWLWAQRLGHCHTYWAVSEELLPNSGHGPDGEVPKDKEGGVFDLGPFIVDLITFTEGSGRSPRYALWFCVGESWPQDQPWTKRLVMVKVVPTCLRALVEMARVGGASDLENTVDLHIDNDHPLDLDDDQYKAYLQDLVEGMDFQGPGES
Strand	fitted relative affinity
TTAGATTTCAGTATTGATTAGTGCTAG	1.82 z-score
TTAGGACTGGGTCTCGGTAAGTGCTAG	-0.66 z-score
GACGATCTCAGTTTCGAGTCGTGCTAG	3.01 z-score
GACGGGCTCCTTCTCCTGACGTGCTAG	2.11 z-score
GACGGACTGGAGTTTCGGGACGTGCTA	1.14 z-score
TCAGATGTGGGACTCACACTGTGCTAG	-0.416 z-score
GACGATATGAGTCTCGAGACGTGCTAG	-0.196 z-score
TTAGGACTGGGCCTGGGTTAGTGCTAG	-1.16 z-score
AAGACTTTGGTTTGTACACCGTGCTAG	-0.659 z-score
TTAGATTTCAGTTTCGATTGGTGCTAG	5.37 z-score
GACGGTCGCCTACTGCTGACGTGCTAG	-0.226 z-score
AAGTTTCTCCTTTCCAAATAGTGCTAG	5.02 z-score
GACGGACTGGACACTGGGGATGTGCTA	-0.724 z-score
GACGATATCATTTTCGAGACGTGCTAG	2.29 z-score
GACGGAGTGGGACTGGGGACGTGCTAG	-0.836 z-score
TTGGTTTTCCTTATTGCTTCGTGCTAG	4.19 z-score
TCATGTATATATGTGTAACTGTGCTAG	-0.0325 z-score
GACGGTTGCGGGTTTCGGGACGTGCTA	2.94 z-score
TTCGATCTCAGTATCGATTAGTGCTAG	1.58 z-score
TTGGATATCGGGTATCGATTAGTGCTA	0.00637 z-score

Sample 5
Target: Prothrombin, mature alpha-thrombin (F2, Homo sapiens, UniProt P00734)
Technique: aptamer microarray, sandwich
Molecule type: DNA with 2'F-ANA
Sample: in vitro
Tested at: 200 nM
Notes: whole 15-mer aptamer, many near background
Added: Cy3 exosite-II aptamer, 400 nM
Direction: higher = stronger binding
Strand: GGTTGGTGTGGTTGG
Modification	mean fluorescence intensity [a.u.]
2'F-ANA at 2 3 5 7 9 10 11 12 15	94.3
2'F-ANA at 1 4 7 11 12 13 14	121
2'F-ANA at 2 4 6 8 9 10 11 15	65.5
2'F-ANA at 3 4 5 7 8 10 11 12 14	52
2'F-ANA at 1 8 9 10 12 13 14	47.6
2'F-ANA at 2 3 4 6 7 8 10 12 13 14	170
2'F-ANA at 8 9 11 12 15	724
2'F-ANA at 1 3 6 8 11 15	447
2'F-ANA at 1 2 3 4 8 10 11 12 13 14	55.8
2'F-ANA at 1 3 6 10 15	78.5
2'F-ANA at 1 5 6 8 10 11 12 13 14 15	76.6
2'F-ANA at 2 3 6 7 10 11 14 15	221
2'F-ANA at 6 10 11 12 13 14	92.1
2'F-ANA at 2 3 5 10 14 15	47.6
2'F-ANA at 2 4 5 9 12 15	157
2'F-ANA at 2 3 4 5 6 8 9 10 15	50.9
2'F-ANA at 3 4 5 6 8 9 10 11 12 13 14	50.9
2'F-ANA at 1 3 4 5 8 9 13 15	50.8
2'F-ANA at 4 7 9 11 13	183
2'F-ANA at 1 3 6 10 12	116
2'F-ANA at 4 7 8 9 10 11 12 13 15	95.5
2'F-ANA at 2 3 10 11 13 14	283
2'F-ANA at 2 3 5 6 8 10 12 13 15	56.6
2'F-ANA at 1 2 3 5 7 9 10 12 15	62.5
2'F-ANA at 1 3 4 7 10 11 12 13 14	49.5

For quick reference, copied from above (sample 3):
Strand	E-score
AGTTGTCC	0.0549
ACCTAACA	0.0769
GTTGTAGA	0.175
CATGTCAC	0.0713
CAAGTCGC	-0.283
